# Published values pooled from the literature.
# Every numbered part comes from another study and shows a few of its results, in no order. “And” joins repeats or separate records; there may be more than shown.
# Sequence of UniProt P10721 (whole entry, unmodified, looked up): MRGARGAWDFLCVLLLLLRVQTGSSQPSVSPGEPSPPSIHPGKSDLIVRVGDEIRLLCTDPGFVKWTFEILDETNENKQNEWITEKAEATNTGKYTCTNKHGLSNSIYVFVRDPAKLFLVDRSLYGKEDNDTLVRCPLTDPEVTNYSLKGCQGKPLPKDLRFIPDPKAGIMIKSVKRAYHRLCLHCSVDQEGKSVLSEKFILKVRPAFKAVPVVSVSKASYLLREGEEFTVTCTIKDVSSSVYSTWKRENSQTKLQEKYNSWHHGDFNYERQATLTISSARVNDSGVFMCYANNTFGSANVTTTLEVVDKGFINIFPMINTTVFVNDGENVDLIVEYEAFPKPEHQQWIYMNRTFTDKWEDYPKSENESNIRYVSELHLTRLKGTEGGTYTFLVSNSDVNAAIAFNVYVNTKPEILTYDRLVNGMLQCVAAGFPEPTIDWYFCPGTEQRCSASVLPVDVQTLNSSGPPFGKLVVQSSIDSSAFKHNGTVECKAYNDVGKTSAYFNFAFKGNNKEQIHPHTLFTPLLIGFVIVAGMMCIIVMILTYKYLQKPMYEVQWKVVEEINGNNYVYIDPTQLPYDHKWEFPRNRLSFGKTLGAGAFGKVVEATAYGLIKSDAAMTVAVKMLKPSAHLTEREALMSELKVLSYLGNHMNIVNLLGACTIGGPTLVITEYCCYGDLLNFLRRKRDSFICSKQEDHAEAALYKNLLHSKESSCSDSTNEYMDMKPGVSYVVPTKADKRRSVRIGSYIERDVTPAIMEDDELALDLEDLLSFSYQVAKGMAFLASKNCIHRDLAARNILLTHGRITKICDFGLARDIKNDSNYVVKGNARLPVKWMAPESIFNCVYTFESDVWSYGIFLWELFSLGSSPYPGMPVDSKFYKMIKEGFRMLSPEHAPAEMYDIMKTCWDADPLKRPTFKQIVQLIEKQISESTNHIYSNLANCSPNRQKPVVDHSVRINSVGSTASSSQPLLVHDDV
# Sequence of UniProt P11802 (whole entry, looked up): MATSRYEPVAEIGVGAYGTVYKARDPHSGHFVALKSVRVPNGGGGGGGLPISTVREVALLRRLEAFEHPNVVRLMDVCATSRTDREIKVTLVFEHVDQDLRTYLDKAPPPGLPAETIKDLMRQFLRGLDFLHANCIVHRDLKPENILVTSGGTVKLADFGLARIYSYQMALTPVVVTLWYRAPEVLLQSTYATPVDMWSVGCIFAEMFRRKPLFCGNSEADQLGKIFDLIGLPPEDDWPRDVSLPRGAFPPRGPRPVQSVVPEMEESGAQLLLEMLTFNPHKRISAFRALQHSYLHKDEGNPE
# Sequence of UniProt O14920 (whole entry, looked up): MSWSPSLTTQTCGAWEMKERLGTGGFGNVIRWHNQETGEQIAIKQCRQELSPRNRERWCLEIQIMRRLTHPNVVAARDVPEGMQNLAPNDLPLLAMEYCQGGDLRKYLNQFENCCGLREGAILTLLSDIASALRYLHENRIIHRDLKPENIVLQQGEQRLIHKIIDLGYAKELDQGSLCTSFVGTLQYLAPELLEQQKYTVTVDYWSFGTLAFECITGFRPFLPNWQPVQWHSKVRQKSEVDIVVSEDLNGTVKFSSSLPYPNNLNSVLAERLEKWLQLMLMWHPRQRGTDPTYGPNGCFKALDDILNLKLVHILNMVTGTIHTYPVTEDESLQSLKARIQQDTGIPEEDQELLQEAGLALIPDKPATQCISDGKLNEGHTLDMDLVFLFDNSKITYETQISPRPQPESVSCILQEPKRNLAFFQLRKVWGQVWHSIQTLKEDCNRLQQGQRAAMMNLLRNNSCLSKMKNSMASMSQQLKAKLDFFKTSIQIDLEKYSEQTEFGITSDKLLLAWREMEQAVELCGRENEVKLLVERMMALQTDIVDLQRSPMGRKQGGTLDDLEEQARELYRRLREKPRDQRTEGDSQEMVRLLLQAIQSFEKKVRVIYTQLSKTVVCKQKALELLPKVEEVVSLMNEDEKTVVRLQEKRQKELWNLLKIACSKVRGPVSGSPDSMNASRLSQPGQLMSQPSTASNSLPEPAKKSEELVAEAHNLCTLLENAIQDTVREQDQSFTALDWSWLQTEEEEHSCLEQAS
# Sequence of UniProt P0C1S8 (whole entry, looked up): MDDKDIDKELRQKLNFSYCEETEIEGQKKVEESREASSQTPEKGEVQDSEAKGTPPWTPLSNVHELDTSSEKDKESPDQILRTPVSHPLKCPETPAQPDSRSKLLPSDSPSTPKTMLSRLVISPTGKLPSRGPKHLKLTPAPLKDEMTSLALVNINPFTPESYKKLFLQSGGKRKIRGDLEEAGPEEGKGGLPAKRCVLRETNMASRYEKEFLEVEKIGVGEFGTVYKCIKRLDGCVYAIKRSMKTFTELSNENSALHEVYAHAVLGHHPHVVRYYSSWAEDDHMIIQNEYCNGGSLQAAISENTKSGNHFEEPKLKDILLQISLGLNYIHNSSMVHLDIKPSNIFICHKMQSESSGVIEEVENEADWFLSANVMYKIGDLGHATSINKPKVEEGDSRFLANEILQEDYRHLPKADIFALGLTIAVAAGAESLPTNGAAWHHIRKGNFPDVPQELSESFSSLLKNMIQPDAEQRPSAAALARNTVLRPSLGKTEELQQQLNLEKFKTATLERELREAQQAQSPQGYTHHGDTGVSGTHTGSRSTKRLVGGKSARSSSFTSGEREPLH
# Sequence of UniProt Q13237 (whole entry, looked up): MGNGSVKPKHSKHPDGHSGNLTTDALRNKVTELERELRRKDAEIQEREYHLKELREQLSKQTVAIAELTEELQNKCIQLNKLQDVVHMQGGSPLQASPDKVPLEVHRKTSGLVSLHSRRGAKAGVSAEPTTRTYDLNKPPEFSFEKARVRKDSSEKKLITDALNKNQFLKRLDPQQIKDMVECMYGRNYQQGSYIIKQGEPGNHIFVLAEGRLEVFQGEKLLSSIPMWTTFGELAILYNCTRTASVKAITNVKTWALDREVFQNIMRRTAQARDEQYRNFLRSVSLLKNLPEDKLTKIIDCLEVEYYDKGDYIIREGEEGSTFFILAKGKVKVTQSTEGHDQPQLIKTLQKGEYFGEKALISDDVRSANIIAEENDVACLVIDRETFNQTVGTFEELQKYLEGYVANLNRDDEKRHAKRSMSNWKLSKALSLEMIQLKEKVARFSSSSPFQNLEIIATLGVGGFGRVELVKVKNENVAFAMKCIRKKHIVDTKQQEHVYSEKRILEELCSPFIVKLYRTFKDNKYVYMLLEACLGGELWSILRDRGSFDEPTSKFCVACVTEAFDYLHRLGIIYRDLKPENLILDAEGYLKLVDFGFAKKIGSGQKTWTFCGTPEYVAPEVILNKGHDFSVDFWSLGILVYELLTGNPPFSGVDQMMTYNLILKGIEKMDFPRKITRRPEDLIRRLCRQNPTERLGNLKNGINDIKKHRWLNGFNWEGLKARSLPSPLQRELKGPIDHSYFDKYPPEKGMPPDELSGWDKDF
# Sequence of UniProt Q9UM73 (whole entry, unmodified, looked up): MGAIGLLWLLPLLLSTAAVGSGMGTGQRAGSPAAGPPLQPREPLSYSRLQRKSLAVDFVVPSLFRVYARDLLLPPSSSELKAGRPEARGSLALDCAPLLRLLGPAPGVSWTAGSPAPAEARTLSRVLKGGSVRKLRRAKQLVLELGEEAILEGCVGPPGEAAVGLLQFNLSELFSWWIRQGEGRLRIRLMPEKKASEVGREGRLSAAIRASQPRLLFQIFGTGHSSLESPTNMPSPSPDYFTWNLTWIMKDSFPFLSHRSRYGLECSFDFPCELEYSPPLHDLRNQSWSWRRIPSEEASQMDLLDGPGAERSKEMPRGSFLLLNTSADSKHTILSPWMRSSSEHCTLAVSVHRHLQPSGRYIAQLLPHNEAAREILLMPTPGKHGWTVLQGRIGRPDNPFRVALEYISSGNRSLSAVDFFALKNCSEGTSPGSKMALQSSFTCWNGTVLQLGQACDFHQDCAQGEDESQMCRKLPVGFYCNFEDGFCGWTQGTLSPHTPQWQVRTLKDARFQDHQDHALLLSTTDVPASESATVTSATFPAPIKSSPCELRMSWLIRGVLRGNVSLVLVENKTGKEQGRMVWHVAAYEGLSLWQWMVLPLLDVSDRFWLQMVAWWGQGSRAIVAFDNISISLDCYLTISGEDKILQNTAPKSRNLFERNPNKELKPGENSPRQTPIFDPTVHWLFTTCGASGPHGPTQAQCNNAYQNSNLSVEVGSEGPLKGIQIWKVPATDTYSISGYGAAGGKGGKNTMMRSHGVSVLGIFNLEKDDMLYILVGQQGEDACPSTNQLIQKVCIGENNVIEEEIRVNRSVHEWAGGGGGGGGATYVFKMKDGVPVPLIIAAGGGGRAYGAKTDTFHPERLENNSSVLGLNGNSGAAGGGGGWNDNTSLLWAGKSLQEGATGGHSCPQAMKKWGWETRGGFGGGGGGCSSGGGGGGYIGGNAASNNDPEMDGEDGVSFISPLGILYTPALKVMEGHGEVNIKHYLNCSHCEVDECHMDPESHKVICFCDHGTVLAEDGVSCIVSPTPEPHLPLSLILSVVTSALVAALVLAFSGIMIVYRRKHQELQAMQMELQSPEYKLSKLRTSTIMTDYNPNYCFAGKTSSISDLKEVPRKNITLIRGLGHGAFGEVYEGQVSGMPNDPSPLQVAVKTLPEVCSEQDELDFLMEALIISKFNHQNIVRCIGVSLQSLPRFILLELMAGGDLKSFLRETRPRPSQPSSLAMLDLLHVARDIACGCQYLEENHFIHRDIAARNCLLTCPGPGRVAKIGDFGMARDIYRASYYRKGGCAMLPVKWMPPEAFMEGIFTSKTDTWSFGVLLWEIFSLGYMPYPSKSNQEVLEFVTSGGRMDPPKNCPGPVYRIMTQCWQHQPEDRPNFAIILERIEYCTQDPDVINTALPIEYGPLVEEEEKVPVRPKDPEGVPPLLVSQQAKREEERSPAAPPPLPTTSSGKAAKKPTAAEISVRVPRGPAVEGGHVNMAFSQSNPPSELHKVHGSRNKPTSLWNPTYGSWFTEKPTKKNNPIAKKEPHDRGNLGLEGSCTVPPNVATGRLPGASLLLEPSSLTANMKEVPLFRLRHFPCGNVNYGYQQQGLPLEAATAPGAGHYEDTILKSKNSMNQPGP

# Series 1
# SMILES: COCCOc1nc(-c2ccc(Cl)nc2)nc2c1CN(C(=O)c1ncn3ccccc13)CC2
# Read-out: cell-free assay
# Technique: competition with immobilised ligand
# Tested at: 0.1 µM
target,remaining binding [%]
"Tyrosine-protein kinase Lck (LCK, Homo sapiens, UniProt P06239)",100
"cGMP-dependent protein kinase 2 (PRKG2, Homo sapiens, UniProt Q13237)",100
"Serine/threonine-protein kinase 33 (STK33, Homo sapiens, UniProt Q9BYT3)",53
"Cyclin-dependent kinase 11B (CDK11B, Homo sapiens, UniProt P21127)",100
"Calcium/calmodulin-dependent protein kinase type 1D (CAMK1D, Homo sapiens, UniProt Q8IU85)",100
"Inhibitor of nuclear factor kappa-B kinase subunit alpha (CHUK, Homo sapiens, UniProt O15111)",100
"Receptor-interacting serine/threonine-protein kinase 4 (RIPK4, Homo sapiens, UniProt P57078)",100
"Myosin light chain kinase family member 4 (MYLK4, Homo sapiens, UniProt Q86YV6)",100
"Wee1-like protein kinase 2 (WEE2, Homo sapiens, UniProt P0C1S8)",100
"Ephrin type-B receptor 1 (EPHB1, Homo sapiens, UniProt P54762)",100
"Mitogen-activated protein kinase 10 (MAPK10, Homo sapiens, UniProt P53779)",91
"Mast/stem cell growth factor receptor Kit, autoinhibited (KIT, Homo sapiens, UniProt P10721)",100
"ALK tyrosine kinase receptor (ALK, Homo sapiens, UniProt Q9UM73, C1156Y)",100
"Casein kinase I isoform gamma-2 (CSNK1G2, Homo sapiens, UniProt P78368)",94
"Receptor-type tyrosine-protein kinase FLT3 (FLT3, Homo sapiens, UniProt P36888, D835H)",100
"Serine/threonine-protein kinase VRK2 (VRK2, Homo sapiens, UniProt Q86Y07)",91
"Cyclin-dependent kinase 4, with cyclin D1 (CDK4, Homo sapiens, UniProt P11802)",96
"Mast/stem cell growth factor receptor Kit (KIT, Homo sapiens, UniProt P10721, V559D)",100
"LIM domain kinase 2 (LIMK2, Homo sapiens, UniProt P53671)",100
"Epidermal growth factor receptor (EGFR, Homo sapiens, UniProt P00533, L858R/T790M)",100
"Testis-specific serine/threonine-protein kinase 3 (TSSK3, Homo sapiens, UniProt Q96PN8)",100

# Series 2
# SMILES: CC(C)n1cnc(-c2ccc(F)cc2)c1-c1ncc(C(=O)Nc2ccc(N3CCN(C)CC3)cc2)[nH]1
# Technique: phase 2a clinical trial
# Host: idiopathic pulmonary fibrosis patients
test,setting,scale,patients with TEAEs
measured: neoplasms (SOC),"dose not given, grade 3, all drug arms",,0%
measured: gamma-glutamyltransferase increased,"dose not given, grade 2, all drug arms",relative to: patients,1%
measured: chest discomfort,"60 mg once daily, grade 1 maximum intensity",relative to: patients,1%
measured: infections and infestations,"60 mg once daily, grade 1 maximum intensity",relative to: patients,1%
measured: reproductive and breast disorders,"60 mg once daily, grade 5 maximum intensity",,0%
measured: investigations (SOC),"dose not given, grade 3, all drug arms",relative to: patients,1%
measured: reproductive and breast disorders,"60 mg once daily, grade 1 maximum intensity",,0%
measured: gamma-glutamyltransferase increased,"60 mg once daily, grade 2 maximum intensity",relative to: patients,1%

# Series 3
# SMILES: CC(=O)c1ccc(N2CCOCC2)cc1O
# Read-out: enzyme activity
# Action: inhibitor
# Tested at: 0.5 µM
# Relative to: control
target,remaining activity
"Serine/threonine-protein kinase 10 (STK10, Homo sapiens, UniProt O94804)",101%
"Mitogen-activated protein kinase kinase kinase 3 (MAP3K3, Homo sapiens, UniProt Q99759)",108%
"Inhibitor of nuclear factor kappa-B kinase subunit epsilon (IKBKE, Homo sapiens, UniProt Q14164)",105%
"TGF-beta receptor type-2 (TGFBR2, Homo sapiens, UniProt P37173)",132%
"Mitogen-activated protein kinase 9 (MAPK9, Homo sapiens, UniProt P45984)",105%
"Death-associated protein kinase 2 (DAPK2, Homo sapiens, UniProt Q9UIK4)",106%
"TGF-beta receptor type-1 (TGFBR1, Homo sapiens, UniProt P36897)",96.6%
"cGMP-dependent protein kinase 1, isoform beta (PRKG1, Homo sapiens, UniProt Q13976)",84.1%
"STE20/SPS1-related proline-alanine-rich protein kinase (STK39, Homo sapiens, UniProt Q9UEW8)",90.9%
"Serine/threonine-protein kinase Chk2 (CHEK2, Homo sapiens, UniProt O96017)",104%
"Tyrosine-protein kinase Lyn, isoform B (LYN, Homo sapiens, UniProt P07948)",98.8%
"Serine/threonine-protein kinase OSR1 (OXSR1, Homo sapiens, UniProt O95747)",115%
"Serine/threonine-protein kinase Nek2 (NEK2, Homo sapiens, UniProt P51955)",81.3%
"Protein kinase C alpha type (PRKCA, Homo sapiens, UniProt P17252)",73.4%
"Serine/threonine-protein kinase STK11 (STK11, Homo sapiens, UniProt Q15831)",103%
"Inhibitor of nuclear factor kappa-B kinase subunit beta (IKBKB, Homo sapiens, UniProt O14920)",103%
"cAMP-dependent protein kinase catalytic subunit alpha (PRKACA, Homo sapiens, UniProt P17612)",102%
"Calcium/calmodulin-dependent protein kinase type II subunit delta (CAMK2D, Homo sapiens, UniProt Q13557)",100%
"Cyclin-dependent kinase 5, with p25 (CDK5, Homo sapiens, UniProt Q00535)",99.7%
"Cyclin-dependent kinase 4, with cyclin D1 (CDK4, Homo sapiens, UniProt P11802)",94.4%
"Protein kinase C beta type, isoform beta-I (PRKCB, Homo sapiens, UniProt P05771)",96.3%
"Death-associated protein kinase 1 (DAPK1, Homo sapiens, UniProt P53355)",92.8%
"G protein-coupled receptor kinase 3 (GRK3, Homo sapiens, UniProt P35626)",89.1%

# Mixed results
Compound,cell line,test,setting,scale,measurement,value
O=C(COc1ccc(Cl)cc1)NC1CCC(NC(=O)COc2ccc(Cl)cc2)CC1 (centres unmarked),L444P/L444P Gaucher fibroblasts,4-MUG hydrolysis in lysate,"0.2 µM, 72 h",relative to: vehicle,enzyme activity,123% and 124% and 112% and 116% and 107% and 120%
